Results pooled from the literature.
Parts stem from different laboratories: compare values within a part only. Several values in a cell are separate wells, animals, samples, runs or records.
UniProt O14733, sequence (whole entry, looked up): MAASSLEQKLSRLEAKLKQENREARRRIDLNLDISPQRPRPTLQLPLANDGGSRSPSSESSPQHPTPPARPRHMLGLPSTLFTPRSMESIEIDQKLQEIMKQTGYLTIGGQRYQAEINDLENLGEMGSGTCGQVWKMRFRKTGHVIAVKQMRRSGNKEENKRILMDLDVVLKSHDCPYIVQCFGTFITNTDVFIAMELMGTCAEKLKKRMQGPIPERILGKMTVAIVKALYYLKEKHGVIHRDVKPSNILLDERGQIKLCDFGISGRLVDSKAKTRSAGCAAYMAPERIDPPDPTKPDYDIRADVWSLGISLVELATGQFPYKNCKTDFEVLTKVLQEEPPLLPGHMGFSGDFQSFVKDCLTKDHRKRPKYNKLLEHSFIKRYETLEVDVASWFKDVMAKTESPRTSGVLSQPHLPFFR
UniProt O00329, sequence (whole entry, looked up): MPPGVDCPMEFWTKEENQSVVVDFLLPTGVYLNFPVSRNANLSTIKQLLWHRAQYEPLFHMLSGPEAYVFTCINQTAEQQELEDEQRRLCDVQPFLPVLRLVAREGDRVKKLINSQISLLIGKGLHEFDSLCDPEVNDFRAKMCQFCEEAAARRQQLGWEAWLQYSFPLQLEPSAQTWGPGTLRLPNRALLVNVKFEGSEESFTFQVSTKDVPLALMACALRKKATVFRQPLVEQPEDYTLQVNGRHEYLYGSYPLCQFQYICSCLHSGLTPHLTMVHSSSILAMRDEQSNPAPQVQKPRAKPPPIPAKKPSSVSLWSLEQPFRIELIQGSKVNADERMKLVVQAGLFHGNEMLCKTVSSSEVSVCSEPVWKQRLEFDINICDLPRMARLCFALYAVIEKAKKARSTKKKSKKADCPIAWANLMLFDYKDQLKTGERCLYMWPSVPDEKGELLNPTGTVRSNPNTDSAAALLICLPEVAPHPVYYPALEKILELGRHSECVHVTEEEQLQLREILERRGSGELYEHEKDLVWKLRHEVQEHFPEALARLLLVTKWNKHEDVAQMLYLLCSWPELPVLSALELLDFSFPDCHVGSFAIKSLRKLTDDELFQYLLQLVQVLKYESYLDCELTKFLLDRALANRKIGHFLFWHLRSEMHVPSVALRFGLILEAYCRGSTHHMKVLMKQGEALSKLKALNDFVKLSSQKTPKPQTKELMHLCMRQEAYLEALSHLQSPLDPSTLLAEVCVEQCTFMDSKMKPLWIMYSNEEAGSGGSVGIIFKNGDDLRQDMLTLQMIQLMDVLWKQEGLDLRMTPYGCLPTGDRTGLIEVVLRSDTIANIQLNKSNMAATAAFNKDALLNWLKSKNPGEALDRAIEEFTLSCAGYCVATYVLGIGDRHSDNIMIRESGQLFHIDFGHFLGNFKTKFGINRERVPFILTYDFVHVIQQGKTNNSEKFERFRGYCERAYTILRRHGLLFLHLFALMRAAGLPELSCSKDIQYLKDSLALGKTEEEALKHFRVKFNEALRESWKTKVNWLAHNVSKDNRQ
UniProt P49840, sequence (whole entry, looked up): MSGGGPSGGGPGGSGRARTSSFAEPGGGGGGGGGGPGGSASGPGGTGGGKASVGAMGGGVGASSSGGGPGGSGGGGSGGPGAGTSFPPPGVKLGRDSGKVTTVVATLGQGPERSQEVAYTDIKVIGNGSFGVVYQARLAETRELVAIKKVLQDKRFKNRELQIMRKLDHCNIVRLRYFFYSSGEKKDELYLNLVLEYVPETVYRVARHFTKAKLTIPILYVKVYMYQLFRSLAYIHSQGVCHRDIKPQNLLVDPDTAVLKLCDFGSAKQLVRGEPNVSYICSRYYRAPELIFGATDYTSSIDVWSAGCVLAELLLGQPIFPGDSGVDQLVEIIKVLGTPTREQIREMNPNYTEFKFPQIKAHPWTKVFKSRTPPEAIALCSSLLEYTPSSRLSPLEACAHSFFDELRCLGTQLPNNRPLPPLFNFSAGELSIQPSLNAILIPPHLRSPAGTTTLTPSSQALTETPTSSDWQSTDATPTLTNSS
UniProt O76039, sequence (whole entry, looked up): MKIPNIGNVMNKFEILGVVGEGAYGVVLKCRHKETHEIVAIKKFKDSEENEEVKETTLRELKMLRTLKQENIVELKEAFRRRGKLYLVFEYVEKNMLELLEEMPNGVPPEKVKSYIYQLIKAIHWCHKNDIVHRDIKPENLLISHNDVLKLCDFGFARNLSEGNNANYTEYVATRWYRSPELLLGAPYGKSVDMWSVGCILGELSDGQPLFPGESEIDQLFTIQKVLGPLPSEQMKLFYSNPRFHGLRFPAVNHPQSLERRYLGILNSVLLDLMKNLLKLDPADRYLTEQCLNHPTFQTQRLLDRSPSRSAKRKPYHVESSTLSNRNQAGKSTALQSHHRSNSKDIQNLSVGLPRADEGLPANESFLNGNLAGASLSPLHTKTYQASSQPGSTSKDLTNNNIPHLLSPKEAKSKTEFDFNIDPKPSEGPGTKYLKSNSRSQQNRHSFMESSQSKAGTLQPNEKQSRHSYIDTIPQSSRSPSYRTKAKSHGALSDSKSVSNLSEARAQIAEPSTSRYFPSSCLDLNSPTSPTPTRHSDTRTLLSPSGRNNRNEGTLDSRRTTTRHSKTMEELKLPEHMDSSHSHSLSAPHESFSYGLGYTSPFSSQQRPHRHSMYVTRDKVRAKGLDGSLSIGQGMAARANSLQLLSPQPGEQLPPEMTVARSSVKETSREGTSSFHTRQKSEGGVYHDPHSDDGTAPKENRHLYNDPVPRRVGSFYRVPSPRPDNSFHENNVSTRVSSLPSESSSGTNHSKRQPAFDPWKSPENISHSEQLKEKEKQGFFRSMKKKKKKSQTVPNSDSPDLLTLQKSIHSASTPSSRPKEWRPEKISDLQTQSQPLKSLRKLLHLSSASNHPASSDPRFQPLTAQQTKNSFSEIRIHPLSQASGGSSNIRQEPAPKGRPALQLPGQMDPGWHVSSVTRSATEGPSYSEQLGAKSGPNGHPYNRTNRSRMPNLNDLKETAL
UniProt Q99558, sequence (whole entry, looked up): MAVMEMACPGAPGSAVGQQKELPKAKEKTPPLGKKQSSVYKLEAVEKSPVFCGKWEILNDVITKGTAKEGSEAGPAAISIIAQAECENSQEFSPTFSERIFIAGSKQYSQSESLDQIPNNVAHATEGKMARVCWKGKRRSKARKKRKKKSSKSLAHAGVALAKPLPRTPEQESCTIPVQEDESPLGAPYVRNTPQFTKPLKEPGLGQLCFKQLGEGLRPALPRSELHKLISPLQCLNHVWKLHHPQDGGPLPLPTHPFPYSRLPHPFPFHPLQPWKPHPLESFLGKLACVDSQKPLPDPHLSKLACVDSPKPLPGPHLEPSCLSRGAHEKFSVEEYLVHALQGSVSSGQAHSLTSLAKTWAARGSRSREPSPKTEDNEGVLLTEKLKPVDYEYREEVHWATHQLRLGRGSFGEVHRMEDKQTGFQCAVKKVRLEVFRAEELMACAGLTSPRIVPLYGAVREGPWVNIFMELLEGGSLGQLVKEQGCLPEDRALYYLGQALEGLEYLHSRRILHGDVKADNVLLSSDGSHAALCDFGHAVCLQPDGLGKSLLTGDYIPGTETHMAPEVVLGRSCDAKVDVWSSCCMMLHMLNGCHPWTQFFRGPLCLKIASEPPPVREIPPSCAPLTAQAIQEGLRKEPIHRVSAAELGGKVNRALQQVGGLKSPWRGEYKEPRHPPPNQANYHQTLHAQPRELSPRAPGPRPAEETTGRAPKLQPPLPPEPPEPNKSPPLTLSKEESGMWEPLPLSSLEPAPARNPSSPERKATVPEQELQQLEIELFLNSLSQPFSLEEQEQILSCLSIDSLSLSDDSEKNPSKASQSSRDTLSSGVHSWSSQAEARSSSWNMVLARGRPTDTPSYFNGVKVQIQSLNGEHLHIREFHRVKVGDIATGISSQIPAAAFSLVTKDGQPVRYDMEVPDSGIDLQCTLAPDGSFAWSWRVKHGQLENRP
UniProt P54756, sequence (whole entry, looked up): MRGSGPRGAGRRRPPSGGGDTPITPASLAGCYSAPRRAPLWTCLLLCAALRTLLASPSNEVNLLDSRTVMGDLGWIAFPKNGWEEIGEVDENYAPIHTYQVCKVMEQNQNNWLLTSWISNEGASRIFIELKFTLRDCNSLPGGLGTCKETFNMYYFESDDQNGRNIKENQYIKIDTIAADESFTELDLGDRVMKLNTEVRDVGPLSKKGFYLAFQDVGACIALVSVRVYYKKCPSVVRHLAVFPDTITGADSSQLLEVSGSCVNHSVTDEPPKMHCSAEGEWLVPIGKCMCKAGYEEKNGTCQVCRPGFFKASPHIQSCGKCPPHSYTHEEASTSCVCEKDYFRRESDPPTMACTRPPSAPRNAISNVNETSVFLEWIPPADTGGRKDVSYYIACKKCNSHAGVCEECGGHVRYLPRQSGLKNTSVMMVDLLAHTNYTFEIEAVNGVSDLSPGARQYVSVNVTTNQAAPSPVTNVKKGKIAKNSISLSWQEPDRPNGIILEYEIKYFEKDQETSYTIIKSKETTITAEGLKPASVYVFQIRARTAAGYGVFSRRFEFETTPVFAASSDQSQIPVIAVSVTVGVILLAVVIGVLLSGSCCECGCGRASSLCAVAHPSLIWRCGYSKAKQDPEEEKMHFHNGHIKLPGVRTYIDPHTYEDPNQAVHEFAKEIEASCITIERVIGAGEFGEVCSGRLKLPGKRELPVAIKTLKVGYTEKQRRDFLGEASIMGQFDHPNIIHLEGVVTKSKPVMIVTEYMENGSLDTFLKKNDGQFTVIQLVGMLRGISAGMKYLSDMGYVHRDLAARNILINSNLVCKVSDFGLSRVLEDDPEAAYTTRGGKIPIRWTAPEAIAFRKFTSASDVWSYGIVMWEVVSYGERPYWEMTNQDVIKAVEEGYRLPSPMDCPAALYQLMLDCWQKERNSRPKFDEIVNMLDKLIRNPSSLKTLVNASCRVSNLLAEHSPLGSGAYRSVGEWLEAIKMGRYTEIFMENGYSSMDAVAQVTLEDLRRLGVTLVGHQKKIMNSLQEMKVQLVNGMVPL

Set 1 — read-out: enzyme activity; mode: inhibitor; tested at: 0.5 µM; baseline: control
Structure (SMILES): CO[C@H]1C[C@@H]2CC[C@@H](C)[C@@](O)(O2)C(=O)C(=O)N2CCCC[C@H]2C(=O)O[C@H]([C@H](C)C[C@@H]2CC[C@@H](O)[C@H](OC)C2)CC(=O)[C@H](C)/C=C(\C)[C@@H](O)[C@@H](OC)C(=O)[C@H](C)C[C@H](C)/C=C/C=C/C=C/1C
target	remaining activity
Ribosomal protein S6 kinase beta-1 (RPS6KB1, Homo sapiens, UniProt P23443)	92.6%
Protein kinase C epsilon type (PRKCE, Homo sapiens, UniProt Q02156)	105%
Glycogen synthase kinase-3 alpha (GSK3A, Homo sapiens, UniProt P49840)	106%
Myosin light chain kinase, smooth muscle (MYLK, Homo sapiens, UniProt Q15746)	102%
Ephrin type-B receptor 2 (EPHB2, Homo sapiens, UniProt P29323)	114%

Set 2 — read-out: cell-free assay; method: competition with immobilised ligand; tested at: 1 µM
SMILES: O=C(Nc1cccnn1)N1CCC(=Cc2cccc(Oc3ccc(C(F)(F)F)cn3)c2)CC1
target	remaining binding
Phosphatidylinositol 4,5-bisphosphate 3-kinase catalytic subunit delta isoform (PIK3CD, Homo sapiens, UniProt O00329)	81%
Serine/threonine-protein kinase TAO1 (TAOK1, Homo sapiens, UniProt Q7L7X3)	100%
Mitogen-activated protein kinase kinase kinase 14 (MAP3K14, Homo sapiens, UniProt Q99558)	100%
Cyclin-dependent kinase-like 5 (CDKL5, Homo sapiens, UniProt O76039)	100%
Ephrin type-A receptor 5 (EPHA5, Homo sapiens, UniProt P54756)	98%
Dual specificity mitogen-activated protein kinase kinase 7 (MAP2K7, Homo sapiens, UniProt O14733)	100%

Set 3 — method: protein-binding microarray; form: double-stranded DNA, one strand shown; matrix: in vitro; tested at: not given; direction: higher = stronger binding
Target: Transcription factor SOX-2, HMG box (SOX2, Homo sapiens, UniProt P48431, residues 19-118)
UniProt P48431, sequence (19-118, looked up): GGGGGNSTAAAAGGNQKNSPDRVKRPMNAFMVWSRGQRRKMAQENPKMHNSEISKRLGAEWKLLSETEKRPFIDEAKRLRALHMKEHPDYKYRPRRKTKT
Setting: k-mer, scored over probes, only values ≥0.25
Oligonucleotide	E-score
CTAACAA	0.265
AAATAGA	0.268
GACAAAA	0.339
ATTATCC	0.364
ATGAATA	0.448
AATTTAC	0.251
CAATTTA	0.321
TATACAA	0.295

Single results of other studies
SMILES	cell line	assay	conditions	scale	endpoint	result
c1ccc2c(-c3nn4c(-c5ccncc5)nnc4s3)c[nH]c2c1	Gaucher fibroblasts	qPCR, refers to: GBA1 mRNA	0.5 µM, unit not given	baseline: vehicle	mRNA level	0.804 and 0.58 and 0.916

Excerpt of the above (set 3):
Oligonucleotide	E-score
ATGAATA	0.448
AAATAGA	0.268
